Measured values collected from several papers.
± gives the spread as reported.

| Structure (SMILES) | test | system | setting | scale | endpoint | value |
| --- | --- | --- | --- | --- | --- | --- |
| CC(C)C[C@@H]1NC(=O)CNC(=O)[C@H](CC(N)=O)NC(=O)[C@H](CCCNC(=N)N)NC(=O)[C@H]([C@@H](C)O)NC(=O)[C@@H]2CSSC[C@@H]3NC(=O)[C@H]([C@@H](C)O)NC(=O)CNC(=O)CNC(=O)[C@H](CCCCN)NC(=O)[C@@H]4CSSC[C@H](NC(=O)[C@H]([C@@H](C)O)NC(=O)[C@H](CSSC[C@H](NC(=O)[C@H](C(C)C)NC(=O)[C@@H]5CCCN5C1=O)C(=O)NCC(=O)N[C@@H](CCC(=O)O)C(=O)N[C@@H]([C@@H](C)O)C(=O)N4)NC(=O)CNC(=O)[C@@H]1CCCN1C(=O)[C@H]([C@@H](C)O)NC(=O)[C@H](CC(N)=O)NC3=O)C(=O)N[C@@H](CO)C(=O)N[C@@H](Cc1c[nH]c3ccccc13)C(=O)N1CCC[C@H]1C(=O)N[C@@H](C(C)C)C(=O)N2 | HPLC | water | 180 µM, 14 days, 37 °C, deamidation stability |  | remaining peptide | 99.4 ± 0.6% |
| CCc1ccc(CC/C=C/c2ccc3c(c2)C(=O)CC3)cc1 |  | Sprague-Dawley rat, female | oral, 450 mg/kg/day, 14 days |  | CHCM | 333 g/L |
| Nc1nc2cc(-c3ccc4ncc(C(=O)N5CCOCC5)n4c3)ccc2o1 |  | human, advanced solid tumours | 100–300 mg once daily, any cause, grade ≥3 |  | elevated AST adverse events | 13% |
| CC(C)C[C@@H]1NC(=O)CNC(=O)[C@H](CC(N)=O)NC(=O)[C@H](CCCNC(=N)N)NC(=O)[C@H](CCCCN)NC(=O)[C@@H]2CSSC[C@@H]3NC(=O)[C@H]([C@@H](C)O)NC(=O)CNC(=O)CNC(=O)[C@H](C(C)C)NC(=O)[C@@H]4CSSC[C@H](NC(=O)[C@H]([C@@H](C)O)NC(=O)[C@H](CSSC[C@H](NC(=O)[C@H](C(C)C)NC(=O)[C@@H]5CCCN5C1=O)C(=O)NCC(=O)N[C@@H](CCC(=O)O)C(=O)N[C@@H]([C@@H](C)O)C(=O)N4)NC(=O)CNC(=O)[C@@H]1CCCN1C(=O)[C@H]([C@@H](C)O)NC(=O)[C@H](CC(N)=O)NC3=O)C(=O)N[C@@H](CO)C(=O)N[C@@H](Cc1c[nH]c3ccccc13)C(=O)N1CCC[C@H]1C(=O)N[C@@H](C(C)C)C(=O)N2 | HPLC | ammonium bicarbonate | 180 µM, 14 days, pH 9.0, 25 °C, deamidation stability |  | remaining peptide | 73 ± 0.4% |
| NCCCC[C@@H]1NC(=O)[C@@H](Cc2c[nH]c3ccccc23)NC(=O)[C@H](c2ccccc2)NC(=O)[C@@H]2C[C@@H](OC(=O)NCCN)CN2C(=O)[C@H](Cc2ccccc2)NC(=O)[C@H](Cc2ccc(OCc3ccccc3)cc2)NC1=O |  | healthy volunteers | subcutaneous, 1950 µg twice daily, day 5, 3.00 h |  | QTcI change from baseline | 11.4 ms |
| C[C@H](C(=O)N[C@H]1COc2ccccc2[C@@H]1S(C)(=O)=O)c1ccc(F)cc1 |  | human cryopreserved hepatocytes | 1 µM |  | hepatic clearance | 18 mL/min/kg |
| Cc1cc(C)c(CNC(=O)c2cc(Cl)c3c(c2C)O[C@@](C)([C@H]2CC[C@H](N(C)C)CC2)O3)c(=O)[nH]1 |  | human, relapsed/refractory NHL | concentration not given, treatment-related TEAEs, grade 5 |  | Constipation incidence | 0% |
| CCNCCCNC/C=C\CNCCCNCC |  | human, advanced solid tumours | intravenous, dose not given | reference: patients | ECG changed from normal baseline | 11.1% |
| O=[N+]([O-])c1ccc2c(c1)S(=O)(=O)C=C2 | flow cytometry | male C57BL/6 mice, spleen | i.p., 20 mg/kg, 8 days | reference: splenocytes | CD45+ cells | 81.7% |
| CC(C)(C)c1cc(-n2nc3ccccc3n2)c(O)c(C(C)(C)C)c1 |  | human aged 21-60 years | concentration not given, foundation, 95th percentile |  | daily dermal exposure dose | 3.73 ng/kg/day |
| CC(C)[C@H](O)C(=O)N[C@H]1Cc2ccc3c(c2)[C@]2(C4=C(c5nc(CO)co5)N=C(O4)[C@H](C(C)(C)C)NC1=O)c1cc(F)ccc1N[C@@H]2O3 |  | NSG mice, heart | intravenous, 10 mg/kg, single dose at MTD, with: paclitaxel 40 mg/kg |  | terminal half-life | 48 min |
| c1cc2ccc3cccc4ccc(c1)c2c34 |  | developing zebrafish, liver |  |  | hepatic clearance | 521 mL/min/kg |
| Cc1ccc(-c2ccnc(Nc3ccc(N4CCN(C)CC4)c(C(F)(F)F)c3)n2)cc1 |  | Danio rerio embryos | 5 µM, 5 d |  | toxicity | 0% |
| COc1ncnn2ccc(-c3cnc4nc(C)n(Cc5nnc([C@@H](C)F)o5)c4c3)c12 |  | human | oral, dose not given, grade 4 |  | patients with nail discoloration | 0% |
| CC[C@H](C)[C@H](NC(=O)[C@H](CO)NC(=O)[C@H](CCCNC(=N)N)NC(C)=O)C(=O)N[C@H]1CSSC[C@@H](C(=O)N[C@H](C(N)=O)[C@@H](C)O)NC(=O)[C@H](CCCNC(=N)N)NC(=O)[C@H](Cc2c[nH]cn2)NC(=O)[C@H](C)NC(=O)CNC(=O)[C@H](Cc2c[nH]c3ccccc23)NC(=O)[C@H](CC(=O)O)NC(=O)[C@H](CCC(N)=O)NC(=O)[C@H](Cc2c[nH]c3ccccc23)NC(=O)[C@H](C(C)C)NC1=O | isocratic RP-HPLC | C18 column | pH 7.4, 25 °C, elution method 2 | higher = more lipophilic | log retention factor | -0.306 |
| C[C@]1(CO)Cc2ncn(-c3ccc(C#N)c(Cl)c3)c2C(=O)O1 |  | healthy Japanese adults, plasma | 40 mg once daily, dosing interval 24 h |  | accumulation ratio of AUC | 1 |
| O=S(=O)(Nc1ccccc1)c1ccc(NC(=S)Nc2ccccc2)cc1 |  | mouse, male, spleen | oral, 5 mg/kg daily, 14 days | reference: body weight | relative organ weight | 0.34% |
| CC(C)C[C@H](NC(=O)[C@H](CCCCN)NC(=O)OCC1c2ccccc2-c2ccccc21)C(=O)N[C@H](C(=O)N[C@@H](Cc1ccccc1)C(=O)N[C@@H](Cc1ccccc1)C(=O)N[C@@H](CCCCN)C(=O)NCC(=O)N[C@@H](Cc1ccccc1)C(=O)N[C@@H](C)C(=O)N[C@@H](Cc1c[nH]c2ccccc12)C(=O)N[C@@H](CC(N)=O)C(=O)N[C@H](C(=O)N[C@H]1CSSC[C@@H](C(=O)N[C@@H](Cc2c[nH]cn2)C(=O)N[C@@H](CCCNC(=N)N)C(=O)N[C@@H](CCCNC(=N)N)C(=O)N[C@@H](C)C(=O)N[C@@H](CC(N)=O)C(N)=O)NC(=O)[C@H](C(C)C)NC(=O)[C@H](CCCNC(=N)N)NC(=O)[C@H](C(C)C)NC(=O)CNC(=O)[C@H](CC(N)=O)NC(=O)[C@H](CCCNC(=N)N)NC(=O)[C@H](Cc2ccc(O)cc2)NC(=O)[C@H](C(C)C)NC1=O)C(C)C)C(C)C |  | ICR mouse | ip, 5 mg/kg | direction not given | stimulus response score | 0 |
| COc1cc2c(cc1OC)CN(CCc1ccc(NC(=O)c3cccc4c(=O)c5cccc(OC)c5[nH]c34)cc1)CC2 |  | CD-1 mouse, male, plasma | intraperitoneal, 10 mg/kg |  | AUC(0-t) | 8520 ng·h/mL |
| CN1C(=O)[C@@H](NC(=O)c2nnc(Cc3ccccc3)[nH]2)COc2cccnc21 | phase I single ascending dose | human, male and female | oral, 10 mg, fasted |  | participants with TEAE leading to death | 0% |

| Structure (SMILES) | test | system | setting | scale | endpoint | value |
| --- | --- | --- | --- | --- | --- | --- |
| COc1cc2c(Oc3ccc4[nH]c(C)cc4c3F)ccnc2cc1OCC1(N)CC1 |  | paediatric recurrent refractory sarcoma | 12 mg |  | grade 3 intestinal obstruction | 9.1% |
| COc1ccnc(C(=O)N[C@H]2COC(=O)[C@H](Cc3ccccc3)[C@@H](OC(=O)C(C)C)[C@H](C)OC2=O)c1OCOC(=O)C(C)C | soil adsorption | soil | pH 6.9, organic carbon 0.8 % |  | KFoc | 58700 mL/g |
| CCN(CCO)CCCC(C)Nc1ccnc2cc(Cl)ccc12 (stereo not drawn) |  | newly diagnosed glioblastoma patients | oral, 800 mg/dose, grade 1, with: radiotherapy and temozolomide |  | anemia patients | 33% |
| CCN1CCN(Cc2ccc(Nc3ncc(F)c(-c4cc(F)c5nc6n(c5c4)[C@H](C)CCC6)n3)nc2)CC1 |  | advanced solid tumour patients | dose not given, Phase Ia monotherapy |  | Anemia incidence, any grade | 66.7% |
| Cc1cccc(Cn2nc(C3CC3)c3c(NC(=O)c4cnc5cc(OCCN6CCN(C)CC6)ccn45)cccc32)n1 | refers to: Anemia | human advanced solid tumours | oral, dose not given, all-causality,, all doses |  | adverse events incidence | 26.3% |
| O=C1Nc2cc3[nH]nc(-c4ccncc4)c3cc2CN1Cc1ccccc1 | CTCAE v4.03 | advanced solid tumour patients | intravenous, 7.2 mg/kg, schedules 1/2 |  | patients with acneiform dermatitis | 40% |
| Cc1nc2c(=O)n(C)c(=O)nc-2n(C)n1 |  | mouse liver microsomes |  |  | hepatic clearance | < 22.1 mL/min/kg |
| Clc1ccc(-c2cc(Cl)c(Cl)c(Cl)c2Cl)cc1Cl |  | fresh water | 20 °C |  | log K(PDMS-water) | 6.41 ± 0.07 |
| O=C(Nc1ccccc1)C1CCN(C(=O)Oc2cccnc2)CC1 | psychotropic effects VAS | healthy women | 60 mg | reference: pre-dose baseline, direction not given | change in Time score | 4.7 |
| CN[C@H]1CC[C@@H](c2ccc(Cl)c(Cl)c2)c2ccccc21 |  | CD-1 mouse, male, lung | intraperitoneal, 30 mg/kg |  | elimination rate constant | 6.15e-05 s⁻¹ |
| CC(=O)c1c(C)c2cnc(Nc3ccc(C4CCN(CCS(C)(=O)=O)CC4)cn3)nc2n(C2CCCC2)c1=O |  | human patients, plasma | oral, 75 mg twice daily, day 21 multiple doses, with: fulvestrant |  | elimination rate constant | 2.22e-05 s⁻¹ |
| Cc1cn([C@H]2O[C@@H](CO[P@@](=O)(N[C@@H](C)C(=O)OC(C)C)Oc3ccccc3)[C@H](O)[C@H]2F)c(=O)[nH]c1=O | refers to: Inflammation | human | 50 mg |  | patients with TEAE | 0% |
| CN1CC[C@@H](c2c(O)cc(O)c3c(=O)cc(-c4ccc(C(F)(F)F)cc4Cl)oc23)[C@@H]1CO | refers to: rectal abscess | AML | oral, 150 mg, grade 3 to 4, intermittent dosing |  | patients with adverse event | 0% |
| CC[C@H](C)[C@H](NC(=O)[C@H](Cc1ccc(O)cc1)NC(=O)[C@@H]1CCCN1C(=O)[C@H](CCCNC(=N)N)NC(=O)[C@@H](N)CCCNC(=N)NC(=O)NCCCCNC(=O)CCCCCN1\C(=C/C=C/C=C/C2=[N+](CCCCS(=O)(=O)[O-])c3ccccc3C2(C)C)C(C)(C)c2cc(S(=O)(=O)O)ccc21)C(=O)N[C@@H](CC(C)C)C(=O)O |  | PBS with 1% BSA |  | reference: cresyl violet perchlorate | fluorescence quantum yield | 47% |
| CCN1[C@@H](C(=O)NC23CCC(C(=O)O)(CC2)CC3)[C@H](c2cccc(Cl)c2F)[C@]2(C(=O)Nc3cc(Cl)ccc32)C12CCCCC2 |  | patients with advanced solid tumours | oral, 150 mg |  | Headache incidence | 0% |
| Clc1ccc(-c2ccc(Cl)c(Cl)c2Cl)c(Cl)c1 |  | polyethylene-water partitioning | PCB compilation | reference: maximum over minimum K | literature range factor | 1.1 |
| O=C(O)CCCOc1ccc(F)cc1-c1cc(-c2ccccc2C(F)(F)F)n(-c2ccccc2)n1 |  | female Crl:CD(SD) rats, thymus | intravenous, 25 µg/kg, 1 d |  | organ weight | 0.52 ± 0.09 g |
| c1ccc2cc3c(cc2c1)-c1cccc2cccc-3c12 |  | fresh water | 12 (unit not given), 20 °C, S30-1 sampler, 30 µm |  | log K(PDMS-water) | 5.23 ± 0.05 |
| CO[C@H]1C[C@@H]2CC[C@@H](C)[C@@](O)(O2)C(=O)C(=O)N2CCCC[C@H]2C(=O)O[C@H]([C@H](C)C[C@@H]2CC[C@@H](OC(=O)NCCOCCOCCOCCOCCOCCOCCOCCOCCC(=O)N3CCc4cc(Cn5nc(-c6ccc7oc(N)nc7c6)c6c(N)ncnc65)ccc4C3)[C@H](OC)C2)C[C@@H](O)[C@H](C)/C=C(\C)[C@@H](O)[C@@H](OC)C(=O)[C@H](C)C[C@H](C)/C=C/C=C/C=C/1C | phase 1 dose escalation | advanced solid tumour patients | intravenous, 8 mg weekly, grade ≥3 |  | AEs causing dose modification | 31.3% |

Excerpt of the above:
| Structure (SMILES) | test | system | setting | scale | endpoint | value |
| --- | --- | --- | --- | --- | --- | --- |
| c1cc2ccc3cccc4ccc(c1)c2c34 |  | developing zebrafish, liver |  |  | hepatic clearance | 521 mL/min/kg |
| CC(C)C[C@@H]1NC(=O)CNC(=O)[C@H](CC(N)=O)NC(=O)[C@H](CCCNC(=N)N)NC(=O)[C@H]([C@@H](C)O)NC(=O)[C@@H]2CSSC[C@@H]3NC(=O)[C@H]([C@@H](C)O)NC(=O)CNC(=O)CNC(=O)[C@H](CCCCN)NC(=O)[C@@H]4CSSC[C@H](NC(=O)[C@H]([C@@H](C)O)NC(=O)[C@H](CSSC[C@H](NC(=O)[C@H](C(C)C)NC(=O)[C@@H]5CCCN5C1=O)C(=O)NCC(=O)N[C@@H](CCC(=O)O)C(=O)N[C@@H]([C@@H](C)O)C(=O)N4)NC(=O)CNC(=O)[C@@H]1CCCN1C(=O)[C@H]([C@@H](C)O)NC(=O)[C@H](CC(N)=O)NC3=O)C(=O)N[C@@H](CO)C(=O)N[C@@H](Cc1c[nH]c3ccccc13)C(=O)N1CCC[C@H]1C(=O)N[C@@H](C(C)C)C(=O)N2 | HPLC | water | 180 µM, 14 days, 37 °C, deamidation stability |  | remaining peptide | 99.4 ± 0.6% |
| CN[C@H]1CC[C@@H](c2ccc(Cl)c(Cl)c2)c2ccccc21 |  | CD-1 mouse, male, lung | intraperitoneal, 30 mg/kg |  | elimination rate constant | 6.15e-05 s⁻¹ |
| CCN(CCO)CCCC(C)Nc1ccnc2cc(Cl)ccc12 (stereo not drawn) |  | newly diagnosed glioblastoma patients | oral, 800 mg/dose, grade 1, with: radiotherapy and temozolomide |  | anemia patients | 33% |
| CN1C(=O)[C@@H](NC(=O)c2nnc(Cc3ccccc3)[nH]2)COc2cccnc21 | phase I single ascending dose | human, male and female | oral, 10 mg, fasted |  | participants with TEAE leading to death | 0% |
